Experimental data collected from several papers.
Each line is one published result; not all experiments were run side by side. ± marks the error that the study gave.
Chain of UniProt P08684 (whole entry, looked up): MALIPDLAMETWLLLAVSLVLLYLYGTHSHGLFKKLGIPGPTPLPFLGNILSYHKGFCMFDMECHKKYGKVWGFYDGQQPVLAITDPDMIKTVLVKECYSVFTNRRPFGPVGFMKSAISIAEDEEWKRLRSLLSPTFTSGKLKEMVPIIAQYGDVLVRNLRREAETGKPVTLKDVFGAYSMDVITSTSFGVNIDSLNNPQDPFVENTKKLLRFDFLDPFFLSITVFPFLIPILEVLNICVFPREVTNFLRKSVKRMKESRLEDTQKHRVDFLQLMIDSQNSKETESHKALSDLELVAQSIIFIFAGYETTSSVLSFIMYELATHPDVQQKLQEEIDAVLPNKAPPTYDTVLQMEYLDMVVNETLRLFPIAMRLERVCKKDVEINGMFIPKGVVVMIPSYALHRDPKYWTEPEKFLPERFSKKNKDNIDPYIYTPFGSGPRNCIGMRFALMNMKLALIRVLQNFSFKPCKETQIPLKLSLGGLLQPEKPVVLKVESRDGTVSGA
Chain of UniProt P22413 (whole entry, looked up): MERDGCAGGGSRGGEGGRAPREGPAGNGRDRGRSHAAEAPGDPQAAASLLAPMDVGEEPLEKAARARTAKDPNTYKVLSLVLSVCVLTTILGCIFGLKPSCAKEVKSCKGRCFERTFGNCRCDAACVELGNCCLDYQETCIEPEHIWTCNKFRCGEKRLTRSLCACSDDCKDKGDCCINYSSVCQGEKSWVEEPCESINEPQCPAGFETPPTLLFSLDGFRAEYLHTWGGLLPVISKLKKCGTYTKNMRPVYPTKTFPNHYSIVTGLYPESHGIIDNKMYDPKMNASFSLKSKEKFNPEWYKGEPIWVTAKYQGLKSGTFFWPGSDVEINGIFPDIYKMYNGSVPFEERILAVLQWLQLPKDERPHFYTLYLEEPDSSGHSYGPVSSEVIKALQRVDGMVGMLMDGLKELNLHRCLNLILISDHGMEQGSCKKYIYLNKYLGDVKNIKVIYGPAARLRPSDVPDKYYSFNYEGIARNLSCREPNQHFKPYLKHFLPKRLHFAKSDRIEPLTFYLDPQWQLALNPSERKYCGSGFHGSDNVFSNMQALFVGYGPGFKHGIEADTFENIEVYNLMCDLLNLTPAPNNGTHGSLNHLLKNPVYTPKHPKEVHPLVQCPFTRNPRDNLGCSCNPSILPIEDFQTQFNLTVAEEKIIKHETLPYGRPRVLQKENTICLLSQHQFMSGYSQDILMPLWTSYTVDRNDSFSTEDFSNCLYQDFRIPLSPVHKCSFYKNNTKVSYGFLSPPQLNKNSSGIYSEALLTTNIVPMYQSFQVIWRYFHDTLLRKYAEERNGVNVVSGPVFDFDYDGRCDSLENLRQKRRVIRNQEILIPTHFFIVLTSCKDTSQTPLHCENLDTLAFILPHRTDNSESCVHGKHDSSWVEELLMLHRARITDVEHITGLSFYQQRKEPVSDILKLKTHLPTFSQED
Chain of UniProt Q4GZT4 (whole entry, looked up): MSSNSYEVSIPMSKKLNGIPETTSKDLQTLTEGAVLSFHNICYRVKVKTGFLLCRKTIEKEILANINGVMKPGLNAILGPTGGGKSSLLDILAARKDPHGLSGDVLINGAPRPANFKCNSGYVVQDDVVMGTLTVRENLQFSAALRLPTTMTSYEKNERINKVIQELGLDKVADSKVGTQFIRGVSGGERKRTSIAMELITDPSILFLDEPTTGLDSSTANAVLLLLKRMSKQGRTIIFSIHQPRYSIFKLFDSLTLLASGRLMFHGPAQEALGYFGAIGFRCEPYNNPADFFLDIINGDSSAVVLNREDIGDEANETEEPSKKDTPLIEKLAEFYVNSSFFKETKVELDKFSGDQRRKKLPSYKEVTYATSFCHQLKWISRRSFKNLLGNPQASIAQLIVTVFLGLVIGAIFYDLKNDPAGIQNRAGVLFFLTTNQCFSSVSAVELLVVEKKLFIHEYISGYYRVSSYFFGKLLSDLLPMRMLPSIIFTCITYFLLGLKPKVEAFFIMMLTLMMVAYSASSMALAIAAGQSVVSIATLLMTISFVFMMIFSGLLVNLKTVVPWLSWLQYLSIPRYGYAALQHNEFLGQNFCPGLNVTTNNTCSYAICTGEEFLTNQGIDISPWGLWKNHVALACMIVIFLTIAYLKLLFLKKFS

The TC50 of `Cc1cn([C@H]2C[C@H](N=[N+]=[N-])[C@@H](CO)O2)c(=O)[nH]c1=O` is reported as over 50 µM (human PBMC; cytotoxicity, XTT; CMU08 line).
For `CNCc1ccc(-c2[nH]c3cc(F)cc4c3c2CCNC4=O)cc1`, “AST/ALT increased incidence” read 0% (human patients; oral, 600 mg twice daily, grade 4).
`CC(C)[C@H](NC(=O)[C@H](Cc1ccc(O)cc1)NC(=O)[C@H](Cc1ccc(O)cc1)NC(=O)[C@@H]1CCCN1C(=O)[C@H](CCC(=O)O)NC(=O)[C@H](CCC(=O)O)NC(=O)[C@H](Cc1c[nH]c2ccccc12)NC(=O)[C@@H]1CCCN1C(=O)[C@@H](NC(=O)[C@H](CCC(N)=O)NC(=O)c1ccc2c(c1)C(=O)OC21c2ccc(O)cc2Oc2cc(O)ccc21)C(C)C)C(=O)N[C@H](C(=O)N[C@@H](CCCCN)C(=O)N[C@@H](CCCCN)C(=O)N[C@@H](CO)C(=O)N[C@@H](CO)C(=O)NCC(=O)NCC(N)=O)C(C)C` — result for “total plasma concentration”: “not detected” (human, plasma; intravenous infusion, 500 mg, predose 0 min, day 1).
`Nc1nc2c(ncn2[C@@H]2O[C@@H]3COP(=O)(O)O[C@H]4[C@@H](O)[C@H](n5cnc6c(N)ncnc65)O[C@@H]4COP(=O)(O)O[C@H]2[C@@H]3O)c(=O)[nH]1` gave a remaining compound of 80% (Ectonucleotide pyrophosphatase/phosphodiesterase family member 1 (ENPP1, Homo sapiens, UniProt P22413); substrate; 8 h).
`CC(C)C[C@H](NC(=O)C[C@H](O)[C@H](CC(C)C)NC(=O)[C@H](Cc1c[nH]cn1)NC(=O)CNC(=O)[C@@H](NC(=O)[C@H](C)NC(=O)[C@H](Cc1c[nH]c2ccccc12)NC(=O)[C@H](CCC(N)=O)NC(=O)[C@@H](Cc1ccccc1)NC(=O)COCCOCCNC(=O)CN1CCN(CC(=O)O)CCN(CC(=O)O)CCN(CC(=O)O)CC1)C(C)C)C(N)=O` [lutetium-177 labelled] has a tissue uptake of 0.5 ± 0.1 %ID/g (female BALB/c nu/nu mice, lung; intravenous, 50 pmol, 1 h).
For `NC(=O)c1cnc2[nH]ccc2c1N[C@@H]1[C@@H]2CC3C[C@H]1C[C@@](O)(C3)C2`, the percent change was 0.07% (CD8+ memory T cells, flow cytometry; Caucasian humans, peripheral blood; 20 mg single dose; baseline: baseline).
`O=C(O)CCC(=O)O.[2H]C([2H])([2H])Oc1cc(C)c2[nH]ccc2c1CN1CC[C@@H](C2CC2)C[C@H]1c1ccc(C(=O)O)cc1` — result for “subjects with TEAE Eczema”: 0% (multiple ascending dose; healthy Chinese subjects; 50 mg twice daily).
The Kd of `CC(=O)Nc1ccc(S(=O)(=O)Nc2c(C)nn(-c3ccccc3)c2C)cc1` is reported as over 100 µM (Cyclin-dependent kinase 2, with cyclin A (CDK2, Homo sapiens, UniProt P24941)).
The Tmax median of `CC[C@H]1[C@@H](O)[C@@H]2[C@H](CC[C@]3(C)[C@@H]([C@H](C)CCNC(=O)NS(=O)(=O)c4ccc(C(C)(C)C)cc4)CC[C@@H]23)[C@@]2(C)CC[C@@H](O)C[C@@H]12` is reported as 4 h (Cytochrome P450 3A4 (CYP3A4, Homo sapiens, UniProt P08684); substrate; human, plasma; 10 mg, alone, study day 1).
For `CCc1cc(C(=O)NC)c2nccc(N3CCc4c(cc(Cn5ccnc5)cc4-c4cn(C)nc4C(F)(F)F)C3=O)c2c1`, the spleen weight was 0.624 ± 0.093 g (Sprague Dawley rat; oral, 50 mg/kg once daily, 7 days).
The percent transported of `CN1C[C@@H]2C[C@H]1CN2c1cc2c(cc1F)c(=O)c(C(=O)O)cn2C1CC1` is reported as 16.3 ± 3.47% (Broad substrate specificity ATP-binding cassette transporter ABCG2 (ABCG2, Bos taurus, UniProt Q4GZT4); apical-to-basolateral transport, transepithelial transport; MDCK-II transduced with ABCG2, HBSS with HEPES; 10 µM, 4 h).
Under “cells with numerical aberrations”, `c1csc(CNc2cc[nH]n2)c1` is recorded as 0.5% (human peripheral blood lymphocytes (female); 1840 µg/mL, 4 h, initial, with: with S9).
`COc1cccc(-c2n[nH]c(SCc3ccccn3)n2)c1OC`: “binucleated cells with micronuclei” 1.1% (CHO-WBL; 300 µg/mL, 3 h, without S9).
`Cc1cc(Nc2ccc(S(F)(F)(F)(F)F)cc2)n2nc(C(C)(F)F)nc2n1` — result for “patients with gastrointestinal disorders”: 23.1% (Plasmodium falciparum; P. falciparum malaria patients; oral, 400 mg).
`CC(C)(C(=O)N1CCOc2c(C#N)cncc2C1)C(F)F`: “subjects with TEAE” 0% (refers to: haematochezia; human, both sexes; oral, 20 mg once daily, 14 days, multiple ascending dose).
`O=C(O)CC[C@H](NC(=O)N[C@@H](CCCCNC(=O)[C@H](Cc1ccc2ccccc2c1)NC(=O)CCCCCNC(=O)CN1CCN(CC(=O)O)CCN(CC(=O)O)CCN(CC(=O)O)CC1)C(=O)O)C(=O)O` [gallium-68 labelled] has a tissue uptake of 4.37 ± 0.67 %ID/g (gamma counting; mouse, 22Rv1 xenograft, lung; intravenous, 3.7 MBq, 2 h).
Under “log2 fold change”, `Cn1cc(-c2ccc(-c3cncc(Cl)c3N3CCC4(CCNC4=O)CC3)cc2)cn1` is recorded as -1.29 (COLO 205; gene expression, microarray, refers to: FABP5 mRNA; concentration not given, 6 h; baseline: untreated cells).
`CC(C)Oc1c(NC(=O)c2ccc(NC(=O)[C@H](CC(N)=O)NC(=O)c3ccc(NC(=O)c4ccc(C#N)cc4)cc3)cc2)ccc(C(=O)Nc2ccc(C(=O)O)cc2)c1O` has a concentration of 10.3 ± 9.3 ng/mL (Escherichia coli ATCC 25922; neutropenic male CD-1 mice, kidney; iv then sc, 67.5 mg/kg/day, 24 h after infection, thigh infection model).
The viability of `CCc1nc(N)nc(N)c1-c1ccc(Cl)cc1` is reported as 100% (uninfected human foreskin fibroblasts; MTT; 10 µM, 48 h).
`CC(C)C[C@H](NC(=O)C[C@H](O)[C@H](CC(C)C)NC(=O)[C@H](Cc1c[nH]cn1)NC(=O)CNC(=O)[C@@H](NC(=O)[C@H](C)NC(=O)[C@H](Cc1c[nH]c2ccccc12)NC(=O)[C@H](CCC(N)=O)NC(=O)[C@@H](Cc1ccccc1)NC(=O)COCCOCCNC(=O)CCC(C(=O)O)N1CCN(CC(=O)O)CCN(CC(=O)O)CCN(CC(=O)O)CC1)C(C)C)C(N)=O` (stereo partly drawn) [lutetium-177 labelled] gave a tissue uptake of 11.9 ± 6.14 %ID/g (BALB/c nu/nu mice, female, PC-3 xenograft tumour; intravenous, 100 pmol, 2 h, with: PA 300 µg).
Under “geometric mean Cmax”, `COc1ncc(-c2nc3c(n2C(C)C)[C@H](c2ccc(Cl)cc2)N(c2cc(Cl)cn(C)c2=O)C3=O)c(OC)n1` is recorded as 235 ng/mL (human patients, plasma; oral, 25 mg, cycle 1 day 1, low-dose).

Repeated from above:
`Cc1cc(Nc2ccc(S(F)(F)(F)(F)F)cc2)n2nc(C(C)(F)F)nc2n1` — result for “patients with gastrointestinal disorders”: 23.1% (Plasmodium falciparum; P. falciparum malaria patients; oral, 400 mg).
`CC(C)(C(=O)N1CCOc2c(C#N)cncc2C1)C(F)F`: “subjects with TEAE” 0% (refers to: haematochezia; human, both sexes; oral, 20 mg once daily, 14 days, multiple ascending dose).
`O=C(O)CC[C@H](NC(=O)N[C@@H](CCCCNC(=O)[C@H](Cc1ccc2ccccc2c1)NC(=O)CCCCCNC(=O)CN1CCN(CC(=O)O)CCN(CC(=O)O)CCN(CC(=O)O)CC1)C(=O)O)C(=O)O` [gallium-68 labelled] has a tissue uptake of 4.37 ± 0.67 %ID/g (gamma counting; mouse, 22Rv1 xenograft, lung; intravenous, 3.7 MBq, 2 h).
Under “log2 fold change”, `Cn1cc(-c2ccc(-c3cncc(Cl)c3N3CCC4(CCNC4=O)CC3)cc2)cn1` is recorded as -1.29 (COLO 205; gene expression, microarray, refers to: FABP5 mRNA; concentration not given, 6 h; baseline: untreated cells).
